Results of several laboratories.
Parts stem from different laboratories: compare values within a part only. Positions count from the first letter of the parent shown.
UniProt P61077, sequence (whole entry, looked up): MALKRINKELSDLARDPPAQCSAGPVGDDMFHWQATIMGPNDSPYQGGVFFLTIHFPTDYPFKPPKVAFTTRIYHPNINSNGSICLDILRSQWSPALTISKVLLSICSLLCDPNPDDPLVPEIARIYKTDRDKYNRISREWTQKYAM

Set 1 — technique: protein-binding microarray; molecule type: double-stranded DNA, one strand shown; sample: in vitro; concentration: 0.8 µM; setting: whole 60-bp probe, no competitor; reading: higher = stronger binding
Target: Centromere-binding protein 1, full length, N-terminal tag (CBF1, Saccharomyces cerevisiae, UniProt P17106, residues 1-351)
UniProt P17106, sequence (whole entry, looked up): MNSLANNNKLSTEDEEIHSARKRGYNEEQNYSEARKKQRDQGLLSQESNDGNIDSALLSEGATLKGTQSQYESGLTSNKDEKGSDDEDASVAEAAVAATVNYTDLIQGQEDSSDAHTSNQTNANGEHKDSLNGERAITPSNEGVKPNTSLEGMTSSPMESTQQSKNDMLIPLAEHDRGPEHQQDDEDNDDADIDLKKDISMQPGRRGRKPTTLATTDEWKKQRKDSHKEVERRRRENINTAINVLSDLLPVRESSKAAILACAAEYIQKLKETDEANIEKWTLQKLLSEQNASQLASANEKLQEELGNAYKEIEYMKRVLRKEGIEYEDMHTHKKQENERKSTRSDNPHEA
The fluorescence intensity of `GAAGTAGATTCTCCTGATGACCCATTCATGACATAGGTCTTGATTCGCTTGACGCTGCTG` is reported as 537 a.u.
With `CCTAACTACTATAGCCACGTGACATAGCTTCGTACAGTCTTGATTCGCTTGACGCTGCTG` the fluorescence intensity was 15100 a.u.
`GAACTTCATTTTGATGTCACAAAAAAGTAATACTAGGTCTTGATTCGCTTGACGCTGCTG` has a fluorescence intensity of 558 a.u.
For `CTAGAAAATAGTCGACGTCAGTCACCTCCAGGTTTCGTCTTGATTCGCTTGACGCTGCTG`, the fluorescence intensity was 515 a.u.
`CTACAGTTAAAACACCACCAATATTTCCAGAAATTCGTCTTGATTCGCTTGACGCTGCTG` gave a fluorescence intensity of 541 a.u.
`CTATCATCTTCCTGGAACGTGACTTCCGTAGGCTTCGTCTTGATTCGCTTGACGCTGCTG` gave a fluorescence intensity of 3640 a.u.
`GAATTTTTCTACGTAATCATGATGATCTTTTTTTAGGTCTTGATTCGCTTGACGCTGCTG` gave a fluorescence intensity of 532 a.u.
For `GAAGGTCTTCTAATCCATCAGATGGGCCAATAATAGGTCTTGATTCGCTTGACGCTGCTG`, the fluorescence intensity was 563 a.u.
`GAATCTGCTTGGAAAAATGTCACGCGTAAAAATTAGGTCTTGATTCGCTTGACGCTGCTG` gave a fluorescence intensity of 2110 a.u.
The fluorescence intensity of `CCTAACTACTATACCCACGACTAATAGCTTCGTACAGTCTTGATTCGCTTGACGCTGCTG` is reported as 506 a.u.
`CTAGCCCAAACCAACGTCGTGATTGCTTCTTCCTTCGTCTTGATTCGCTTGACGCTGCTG` has a fluorescence intensity of 592 a.u.
The fluorescence intensity of `CTACGGAAATGGCACCATCACCTGAAAAAGAACTTCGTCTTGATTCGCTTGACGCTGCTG` is reported as 568 a.u.
`CCTAACTACTATAATCACGCCACATAGCTTCGTACAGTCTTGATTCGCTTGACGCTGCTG` has a fluorescence intensity of 754 a.u.
With `GAATGAATGATATTTCACATGGTGGATGCCATCTAGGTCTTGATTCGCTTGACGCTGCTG` the fluorescence intensity was 531 a.u.
For `GAAGCGAAGAAATGCGACGTCATTTACTCATTATAGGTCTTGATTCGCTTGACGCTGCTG`, the fluorescence intensity was 511 a.u.
The fluorescence intensity of `CCTAACTACTATATCTGCGTGTCATAGCTTCGTACAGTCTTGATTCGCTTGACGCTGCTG` is reported as 536 a.u.
`GAATAAAACTAGTGGCACGTTTAAATGACTTTTTAGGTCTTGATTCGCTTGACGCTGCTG` gave a fluorescence intensity of 556 a.u.
For `GAATAGTATGGTGAGCACATGCTTTAAGTCCGATAGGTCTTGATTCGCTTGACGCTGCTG`, the fluorescence intensity was 947 a.u.
For `CTACATATTTGAGTAGATCTGATGCGCAATGTCTTCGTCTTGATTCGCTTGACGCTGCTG`, the fluorescence intensity was 524 a.u.
`CCTAACTACTATAGGTGCGTGGAATAGCTTCGTACAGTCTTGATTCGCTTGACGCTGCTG` has a fluorescence intensity of 528 a.u.
`GAAGAGTGTGTACATGTGACAAAAAAGATTGGATAGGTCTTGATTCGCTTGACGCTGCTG` gave a fluorescence intensity of 4490 a.u.

Set 2 — target: CCNB2, cyclin fold, Cln2 fusion (human); technique: yeast growth competition, sequencing; sample: yeast; setting: weak parent motif; relative to: not given; reading: higher = stronger binding
Parent: SLBP docking peptide (human); ARYKRKLLINDFG
`G13N`: “normalised enrichment score” 0.415.
`R2Q`: “normalised enrichment score” 0.977.
Under “normalised enrichment score”, `R2F` is recorded as 0.0968.
`N10L` — result for “normalised enrichment score”: 0.888.
`L8F`: “normalised enrichment score” 1.
Under “normalised enrichment score”, `L8T` is recorded as 0.583.
For `F12K`, “normalised enrichment score” read 0.133.
For `L8V`, “normalised enrichment score” read 1.07.
For `R2K`, “normalised enrichment score” read 0.717.
`L7P`: “normalised enrichment score” 0.319.
`F12S` — result for “normalised enrichment score”: 0.518.
`G13P`: “normalised enrichment score” 0.796.
`K6M`: “normalised enrichment score” 0.359.
`L8S` — result for “normalised enrichment score”: 0.439.
For `R2P`, “normalised enrichment score” read 0.422.
`G13I` — result for “normalised enrichment score”: 0.317.
`F12V`: “normalised enrichment score” 0.399.

Set 3 — technique: DHFR PCA, deep sequencing; sample: yeast; with: (+)-ABA 0.0091 µM; relative to: wild-type fitted maximum; reading: higher = stronger binding
Target: ABI1, truncated, D143A, DHFR fusion (Arabidopsis thaliana)
Setting: methotrexate growth selection, single substitutions
Parent: PYL1, truncated, DHFR fusion (Arabidopsis thaliana); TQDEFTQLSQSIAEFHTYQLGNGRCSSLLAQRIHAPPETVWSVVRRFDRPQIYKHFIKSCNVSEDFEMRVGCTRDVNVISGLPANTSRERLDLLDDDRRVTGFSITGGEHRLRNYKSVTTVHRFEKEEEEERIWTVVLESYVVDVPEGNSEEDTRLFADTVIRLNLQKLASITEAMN; partner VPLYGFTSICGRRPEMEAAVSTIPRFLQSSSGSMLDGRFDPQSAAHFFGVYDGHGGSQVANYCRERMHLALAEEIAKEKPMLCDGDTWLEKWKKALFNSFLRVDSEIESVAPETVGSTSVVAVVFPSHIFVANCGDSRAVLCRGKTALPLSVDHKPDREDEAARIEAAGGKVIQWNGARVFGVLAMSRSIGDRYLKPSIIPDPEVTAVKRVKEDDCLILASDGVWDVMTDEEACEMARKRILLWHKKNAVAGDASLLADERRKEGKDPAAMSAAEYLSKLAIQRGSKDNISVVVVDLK
`V145H`: “relative binding score” -4.18%.
`N85G` — result for “relative binding score”: 22.4%.
`C60K` — result for “relative binding score”: -8.16%.
`F56R`: “relative binding score” 3.03%.
Under “relative binding score”, `N149H` is recorded as 29.8%.
`I133A`: “relative binding score” 43.2%.
`S26G` — result for “relative binding score”: 18.4%.
Under “relative binding score”, `K126M` is recorded as 44.8%.
For `V142A`, “relative binding score” read 22.7%.
`I33N` — result for “relative binding score”: -3.81%.
`E152G` — result for “relative binding score”: 3.24%.
`S27I`: “relative binding score” -0.0335%.

Set 4 — technique: RNA Bind-n-Seq; molecule type: RNA; sample: in vitro; concentration: 365 nM; relative to: no-protein control; reading: higher = stronger binding
Target: RNA binding protein fox-1 homolog 2, RRM domain, GST-SBP tag (RBFOX2, Homo sapiens, UniProt O43251-10, residues 100-194)
Setting: natural RNA segment, single round, ends assumed
Target sequence (chain): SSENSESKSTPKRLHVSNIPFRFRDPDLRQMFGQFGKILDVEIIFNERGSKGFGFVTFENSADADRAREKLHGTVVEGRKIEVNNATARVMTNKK
Under “RBNS enrichment (R)”, `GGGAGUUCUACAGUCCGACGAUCGAAAUUGACAGAUUUGGUGAAUAACUUUUCCAUACUAUUCCUGCUUUUCCCAUCCACUGAAACAGCCUGUUGUAGCAAGAGGCUUUCAAGAGUGCAGUGGAGUUGCGCUGUGGAAUUCUCGGGUGCCAA` is recorded as 0.299.
`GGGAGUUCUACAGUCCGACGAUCCCUCUGAUGUCGGCGAAUCCUGAAGCACCUGCACCCGAAUCUGGGGCCCAGGGCUGCCCGACCCCCACUCCCAUGGAUGAUGAGGAGCCCCAGACACCAGCUCCUCUGGCUGGAAUUCUCGGGUGCCAA` — result for “RBNS enrichment (R)”: 1.48.
`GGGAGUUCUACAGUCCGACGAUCGUCAGGUAACAACCAGAUGGCUUCACUGAAACCUGCUUUUGUAAAUUACUUUUUUUUACUGUUGCUGGAAGUGUCCCACCUGCUGCUCAUAAUAAAUGCAGAUGUAUAGCUGGAAUUCUCGGGUGCCAA` — result for “RBNS enrichment (R)”: 0.324.
For `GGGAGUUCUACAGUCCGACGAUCCAGAUCUGCAGCCUCGGGGACUCCCAGGUACACAGCAUCCUACUGUAACCUUGGAAGCUGACCAAAACCUGUUUCUACUGAGAAGACAGAUACAUCCUUACCCCUAGAAGUGGAAUUCUCGGGUGCCAA`, “RBNS enrichment (R)” read 0.24.
For `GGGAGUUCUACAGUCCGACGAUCGCACAUUCAUUUUCUCAGUUGAAGAAGAGAAAAUUUGAAAAUGUCCUUAUGCUUUUAGAGUUGCAACUUAAGUAUAUUUGGUAGGGUGAGUGUUUCCACUCAAAAUAUGUUGGAAUUCUCGGGUGCCAA`, “RBNS enrichment (R)” read 0.665.
`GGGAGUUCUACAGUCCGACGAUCAAAAUUAACUGGGUGUGGUGGCGCGUGCCUGUAAUCCCAGCUACUCGGGAAGCUGAGGCAGGUGAAUUGUUUGAACCUGGGAGGUGGAGGUUGCAGUGAGCAGAGAUCACUGGAAUUCUCGGGUGCCAA` — result for “RBNS enrichment (R)”: 0.872.
`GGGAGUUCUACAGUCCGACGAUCCACUGACCUUAACCACAACCAUUAGCCAGAAGAUACUGCAUGCUCCCUUGUGUCUGGAGUAUUCUGUCAUCUGCAAGCCCUGUUCUUACCUCACCUGUCCACGUUCACCAUGGAAUUCUCGGGUGCCAA` — result for “RBNS enrichment (R)”: 0.977.
`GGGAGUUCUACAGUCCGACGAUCCAGGGGUGGCUGACCCCAUGCUCAGCCUCUAGGGGACGGCAGGCCAUCAGGCUGGGGGCUGUGCUAUGUGGGAUGGAUGUGUGAGGAACCCCGGUUCCACUUAACAACUAUGGAAUUCUCGGGUGCCAA` — result for “RBNS enrichment (R)”: 1.16.
`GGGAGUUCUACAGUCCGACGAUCCCUGGGCAACAUGGCGAAACCUCGUCUCUACUAAAAAUACAAAAUAUAUAUAUAUAUAUAUAUACUAGCUGGGGCACAUAGUGGUGUGCACCUGUAGUCCCAGCUGCUUGUGGAAUUCUCGGGUGCCAA` — result for “RBNS enrichment (R)”: 1.42.
For `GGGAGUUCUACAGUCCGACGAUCCAAUAAAAGAGUCUGAAAAUUGGGAGAGAAAACCUACUCUAGGAGCCUCUGGUUACACAUAUUUUAGGCUUUUUUUCCCCCUGAAAUUGUACUUACUGAGGUCCAUGUAUUGGAAUUCUCGGGUGCCAA`, “RBNS enrichment (R)” read 0.371.
`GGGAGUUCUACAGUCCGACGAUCUGAAAAAUGCCUUAGUGAUAAGCUUUCAUGGCAGAGCACGUCAAGAUAAAUGGGUAUACUGGAAUCCGAUGCCGUUUCUACAGUAAAGUGCAAUCUUCGUUGUUUUUGUAUGGAAUUCUCGGGUGCCAA` — result for “RBNS enrichment (R)”: 0.413.
Under “RBNS enrichment (R)”, `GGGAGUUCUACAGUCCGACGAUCCUCUUCACCCAAUGAUGACCUGACCAUGCCUGCCUGCUGAUCAGUUAACUGGUAAUCGCCUUUGCUUGCCUGUCGUCAGUGCAGCGAGCUGAGGCACUUGUCCGUUCGUCUGGAAUUCUCGGGUGCCAA` is recorded as 0.538.

Single results of other studies
B1: RNF5 RING domain (UniProt Q99942); chain ERGGAGATFECNICLETAREAVVSVCGHLYCWPCLHQWLETRPERQECPVCKAGISREKVVP
Under “lacZ reporter activity”, `B1 (RNF5 RING domain)` is recorded as 500 (UBE2D3 UBC core domain (UniProt P61077); yeast two-hybrid; yeast; mostly zero background; relative to: not given, higher = stronger interaction).

Some of these lines once more (set 4):
Under “RBNS enrichment (R)”, `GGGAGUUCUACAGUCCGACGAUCGAAAUUGACAGAUUUGGUGAAUAACUUUUCCAUACUAUUCCUGCUUUUCCCAUCCACUGAAACAGCCUGUUGUAGCAAGAGGCUUUCAAGAGUGCAGUGGAGUUGCGCUGUGGAAUUCUCGGGUGCCAA` is recorded as 0.299.
`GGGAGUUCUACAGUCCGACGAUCCCUCUGAUGUCGGCGAAUCCUGAAGCACCUGCACCCGAAUCUGGGGCCCAGGGCUGCCCGACCCCCACUCCCAUGGAUGAUGAGGAGCCCCAGACACCAGCUCCUCUGGCUGGAAUUCUCGGGUGCCAA` — result for “RBNS enrichment (R)”: 1.48.
`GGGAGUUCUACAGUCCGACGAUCGUCAGGUAACAACCAGAUGGCUUCACUGAAACCUGCUUUUGUAAAUUACUUUUUUUUACUGUUGCUGGAAGUGUCCCACCUGCUGCUCAUAAUAAAUGCAGAUGUAUAGCUGGAAUUCUCGGGUGCCAA` — result for “RBNS enrichment (R)”: 0.324.
For `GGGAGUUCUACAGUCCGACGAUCCAGAUCUGCAGCCUCGGGGACUCCCAGGUACACAGCAUCCUACUGUAACCUUGGAAGCUGACCAAAACCUGUUUCUACUGAGAAGACAGAUACAUCCUUACCCCUAGAAGUGGAAUUCUCGGGUGCCAA`, “RBNS enrichment (R)” read 0.24.
For `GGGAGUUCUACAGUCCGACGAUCGCACAUUCAUUUUCUCAGUUGAAGAAGAGAAAAUUUGAAAAUGUCCUUAUGCUUUUAGAGUUGCAACUUAAGUAUAUUUGGUAGGGUGAGUGUUUCCACUCAAAAUAUGUUGGAAUUCUCGGGUGCCAA`, “RBNS enrichment (R)” read 0.665.
